Published values from different studies.
Lines come from different studies, so protocols differ.
Organism: Pseudomonas aeruginosa

| SMILES | method | strain | sample | time | temperature | MIC |
| --- | --- | --- | --- | --- | --- | --- |
| CC(C)[C@H](NC(=O)[C@H](CCCCN)NC(=O)[C@H](CCCNC(=N)N)NC(=O)CNC(=O)[C@H](C)NC(=O)[C@H](CC(N)=O)NC(=O)[C@H](CCCNC(=N)N)NC(=O)[C@@H](NC(=O)[C@H](CCCCN)NC(=O)[C@H](CC(=O)O)NC(=O)[C@@H](NC(=O)[C@@H](NC(=O)[C@H](CCCNC(=N)N)NC(=O)[C@H](CCCNC(=N)N)NC(=O)[C@H](Cc1c[nH]c2ccccc12)NC(=O)[C@H](Cc1c[nH]c2ccccc12)NC(=O)CN)[C@@H](C)O)C(C)C)C(C)C)C(=O)O |  | ATCC 27853 |  | 18 h | 37 °C | > 256 mg/L |
| NCCCC[C@H](NC(=O)[C@@H]1CSCC(=O)N[C@@H](CCCCN)C(=O)N[C@@H](Cc2ccccc2)C(=O)N[C@@H](CCCCN)C(=O)N[C@H]2CCCCNC(=O)[C@H](CCCCN)NC(=O)[C@H](Cc3ccccc3)NC(=O)[C@H](CCCCN)NC(=O)CSC[C@H](NC(=O)[C@H](Cc3ccccc3)NC(=O)[C@H](Cc3ccccc3)NC(=O)[C@H](CCCCN)NC2=O)C(=O)N[C@@H](Cc2ccccc2)C(=O)N[C@@H](Cc2ccccc2)C(=O)N[C@@H](Cc2ccccc2)C(=O)N1)C(N)=O |  | PAO1 |  | 18 h |  | > 256 mg/L |
| C[C@@](O)(C(F)F)[C@H](NC(=O)c1ccc(C#CC#CC2CC2)cc1)C(=O)NO | broth microdilution | PAO1 | CAMHB |  |  | 0.125 mg/L |
| CCCCCCCCCCCCCCCc1cc(O)cc(O)c1 | broth microdilution | PAO1 chloramphenicol-resistant |  |  | 37 °C | > 64 mg/L |
| CCCCCCCCCCCCCC(=O)N[C@H](CCN)C(=O)N[C@@H]1C(=O)N[C@@H](CCN)C(=O)N[C@@H](CC(C)C)C(=O)N[C@@H](CCN)C(=O)N[C@H](Cc2ccccc2)C(=O)N[C@@H](CC(C)C)C(=O)N[C@@H](CCN)C(=O)N[C@H](Cc2ccc(O)cc2)C(=O)N[C@@H](C(C)C)C(=O)N[C@@H](CC(=O)O)C(=O)O[C@@H]1C | broth microdilution | BNCC 186070 |  |  |  | 8 mg/L |
| CC[C@@H](C)[C@@H](NC(=O)[C@@H](C)NC(=O)[C@@H](CCCCN)NC(=O)[C@@H](CC(C)C)NC(=O)[C@@H](C)NC(=O)[C@H](NC(=O)[C@@H](Cc1c[nH]cn1)NC(=O)[C@@H](CC(C)C)NC(=O)[C@H](NC(=O)[C@H](NC(=O)[C@@H](CCCCN)NC(=O)[C@@H](CCCCN)NC(=O)[C@@H](C)NC(=O)[C@@H](CO)NC(=O)[C@@H](CCCCN)NC(=O)[C@@H](Cc1ccccc1)NC(=O)[C@H](NC(=O)[C@@H](CCCCN)NC(=O)[C@@H](CC(C)C)NC(=O)[C@@H](Cc1ccccc1)NC(=O)[C@@H](CO)NC(=O)[C@@H](CCCCN)NC(=O)[C@@H](Cc1c[nH]c2ccccc12)NC(=O)[C@@H](CCCCN)NC(C)=O)[C@H](C)O)[C@H](C)O)C(C)C)[C@H](C)O)C(=O)N[C@H](CO)C(=O)N[C@H](CO)C(N)=O | broth microdilution | M2 |  | 24 h | 37 °C | 2.6 µM |
| N=C(N)NCCC[C@@H]1NC(=O)[C@H](CCCCN)NC(=O)[C@H](CCCNC(=N)N)NC(=O)[C@H](CCCNC(=N)N)NC(=O)[C@H](CCCNC(=N)N)NC(=O)[C@H](CCCNC(=N)N)NC1=O | broth microdilution | PAO1 |  |  | 37 °C | > 114 mg/L |
| NCCCC[C@H](NC(=O)[C@@H]1CSCC(=O)N[C@@H](CCCCN)C(=O)N[C@@H](Cc2ccccc2)C(=O)N[C@@H](CCCCN)C(=O)NCCCC[C@@H]2NC(=O)[C@H](CCCCN)NC(=O)[C@H](Cc3ccccc3)NC(=O)[C@H](CCCCN)NC(=O)CSC[C@H](NC(=O)[C@H](Cc3ccccc3)NC(=O)[C@H](Cc3ccccc3)NC(=O)[C@H](CCCCN)NC2=O)C(=O)N[C@@H](Cc2ccccc2)C(=O)N[C@@H](Cc2ccccc2)C(=O)N[C@@H](Cc2ccccc2)C(=O)N1)C(N)=O |  | PAO1 |  | 18 h |  | > 256 mg/L |
| CC[C@H](C)[C@H](NC(=O)CNC(=O)[C@H](CCCCN)NC(=O)[C@H](C)NC(=O)[C@H](CCC(=O)O)NC(=O)[C@H](Cc1ccccc1)NC(=O)[C@H](CO)NC(=O)[C@H](CC(C)C)NC(=O)[C@@H](NC(=O)[C@H](CC(=O)O)NC(=O)[C@H](C)NC(=O)[C@@H](NC(=O)[C@@H](N)C(C)C)[C@@H](C)O)C(C)C)C(=O)N[C@@H](C)C(=O)N[C@H](C(=O)N[C@@H](CC(N)=O)C(=O)N[C@@H](Cc1c[nH]cn1)C(=O)N[C@@H](CO)C(=O)N[C@@H](C)C(=O)N[C@H]1CSSC[C@@H]2NC(=O)[C@H](C(C)C)NC(=O)CNC(=O)[C@H](CC(N)=O)NC(=O)[C@H](CCC(N)=O)NC(=O)[C@H](C)NC(=O)[C@H](CO)NC(=O)CNC(=O)CNC(=O)[C@H](CCCCN)NC(=O)[C@H](CCCCN)NC(=O)[C@H](CCCNC(=N)N)NC(=O)[C@H](CC(C)C)NC(=O)[C@H](C)NC(=O)[C@H]([C@@H](C)CC)NC(=O)[C@H](CSSC[C@@H](C(=O)N[C@@H](CCCNC(=N)N)C(=O)N[C@@H](CC(N)=O)C(=O)O)NC(=O)[C@H](C(C)C)NC2=O)NC(=O)[C@H](Cc2c[nH]cn2)NC(=O)[C@H](CC(C)C)NC(=O)[C@H](C)NC1=O)C(C)C | broth microdilution | KCTC 1637 |  | 16 h | 37 °C | > 100 µM |
| C[C@H]1COc2c(N3CCN(C)CC3)c(F)cc3c(=O)c(C(=O)N[C@@H](CCCNC(=N)N)C(=O)N[C@@H](Cc4ccc(-c5ccccc5)cc4)C(=O)N[C@@H](CCCNC(=N)N)C(=O)N[C@@H](Cc4ccc(-c5ccccc5)cc4)C(=O)N[C@@H](CCCNC(=N)N)C(N)=O)cn1c23 | broth microdilution | ATCC 3197 |  | 18 h | 37 °C | 20 µM |

Repeated from above:
| SMILES | method | strain | sample | time | temperature | MIC |
| --- | --- | --- | --- | --- | --- | --- |
| CCCCCCCCCCCCCC(=O)N[C@H](CCN)C(=O)N[C@@H]1C(=O)N[C@@H](CCN)C(=O)N[C@@H](CC(C)C)C(=O)N[C@@H](CCN)C(=O)N[C@H](Cc2ccccc2)C(=O)N[C@@H](CC(C)C)C(=O)N[C@@H](CCN)C(=O)N[C@H](Cc2ccc(O)cc2)C(=O)N[C@@H](C(C)C)C(=O)N[C@@H](CC(=O)O)C(=O)O[C@@H]1C | broth microdilution | BNCC 186070 |  |  |  | 8 mg/L |
| CC(C)[C@H](NC(=O)[C@H](CCCCN)NC(=O)[C@H](CCCNC(=N)N)NC(=O)CNC(=O)[C@H](C)NC(=O)[C@H](CC(N)=O)NC(=O)[C@H](CCCNC(=N)N)NC(=O)[C@@H](NC(=O)[C@H](CCCCN)NC(=O)[C@H](CC(=O)O)NC(=O)[C@@H](NC(=O)[C@@H](NC(=O)[C@H](CCCNC(=N)N)NC(=O)[C@H](CCCNC(=N)N)NC(=O)[C@H](Cc1c[nH]c2ccccc12)NC(=O)[C@H](Cc1c[nH]c2ccccc12)NC(=O)CN)[C@@H](C)O)C(C)C)C(C)C)C(=O)O |  | ATCC 27853 |  | 18 h | 37 °C | > 256 mg/L |
